Measurements from different studies.
Every numbered part comes from another study and shows a few of its results, in no order. Positions count from the first letter of the parent shown.

Set 1
Target: CCND1, cyclin fold, Cln2 fusion (human)
Method: yeast growth competition, sequencing
Medium: yeast
Setting: weak parent motif
Baseline: not given
Reading: higher = stronger binding
Starting sequence: WEE1 docking peptide (human); HKTFRKLRLFDTP
`R5A` — result for “normalised enrichment score”: -0.993.
For `H1S`, “normalised enrichment score” read 0.571.
`P13H` — result for “normalised enrichment score”: -0.698.
Under “normalised enrichment score”, `H1G` is recorded as -0.609.
`L7V`: “normalised enrichment score” -0.433.
Under “normalised enrichment score”, `R8E` is recorded as 0.856.
`R5V` — result for “normalised enrichment score”: -0.311.
`R8L`: “normalised enrichment score” 0.0431.
`R5A L7A` — result for “normalised enrichment score”: 0.53.
For `H1A`, “normalised enrichment score” read -0.424.
Under “normalised enrichment score”, `K2W` is recorded as 0.406.
For `K2E`, “normalised enrichment score” read 0.125.
`P13A`: “normalised enrichment score” 0.0254.
`L7E` — result for “normalised enrichment score”: -0.0827.
`K6N`: “normalised enrichment score” 0.395.
Under “normalised enrichment score”, `K2A` is recorded as 0.293.
`L7A`: “normalised enrichment score” -0.727.
`R5I`: “normalised enrichment score” 0.394.
Under “normalised enrichment score”, `R8W` is recorded as 1.11.
`F4Q`: “normalised enrichment score” 0.106.
`T12E`: “normalised enrichment score” 0.299.
Under “normalised enrichment score”, `K2R` is recorded as 0.749.
Under “normalised enrichment score”, `R8D` is recorded as 0.14.
Under “normalised enrichment score”, `H1C` is recorded as -0.317.
Under “normalised enrichment score”, `L9Q` is recorded as 0.224.

Set 2
Target: Fragile X messenger ribonucleoprotein 1, C-terminal low-complexity region (Fmr1, Mus musculus, UniProt P35922)
Method: RNA Bind-n-Seq
Form: RNA
Medium: in vitro
Concentration: 200 nM
Setting: whole 134-nt RNA, ends assumed
Together with: 150 mM LiCl
Baseline: input library
Reading: higher = stronger binding
Library: 7-deaza-guanosine replaces G
All sequences stand within: GGGAGUUCUACAGUCCGACGAUC … UGGAAUUCUCGGGUGUCAAGG
With `UCAAGUCCUGUGCUACACAUCGUAUGUACCGAAUCGGUUUGGGGUUUGGGUUUGGAAAGUAUUAUGUUACGCCGUUCGGAUCUGCACUUC` the log2 enrichment was -1.45.
`ACCAUGCAGGUGGGCAUCUUUGGGAAGUGGGGCAAUGGGGGGAUAGGGAGGGGGGUAACACUUUGGGAACAGGUGGUCCCAGGUCGUUUC` gave a log2 enrichment of 1.3.
`UCAAGUCCUGUGCUACACAUCGUAUGUACCGAAUCGGCCCGGGGCCCGGCCCGGAAAGUAUUAUGUUACGCCGUUCGGAUCUGCACUUCC` gave a log2 enrichment of -0.514.
The log2 enrichment of `CACAGACAACACGCAUCCACACAGACACAGAGGGAAGGGGUUGGGAUGGGGACAGGGUGCACAGCAGGGCGGGGUAGGACCCCAGCCCCU` is reported as 1.22.
`AGUCCUGUGCUACACAUCGUAUGUACCGAAUCGGUUUUUGGUUUUUUUGGAAAAAGGAAAGUAUUAUGUUACGCCGUUCGGAUCUGCACU` has a log2 enrichment of -2.46.
`CAAGUCCUGUGCUACACAUCGUAUGUACCGAAUCGGGUGGGAAAGGGUUUUUGGGAAAGUAUUAUGUUACGCCGUUCGGAUCUGCACUUC` gave a log2 enrichment of -1.41.
With `UGGUCCUGGUGGCAUGCGGGGAGGAAGAGGUGGCCUCAUGGAUCGUGGUGGUCCCGGUGGAAUGUUCAGAGGUGGCCGUGGUGGAGACAG` the log2 enrichment was 0.0872.
`UGGAUGGACACCAUUAUCGUCGUGUGGCACGGGUUGACCUAAGGAAGAAGACAGAGACUUUCUCCACAAGAAGGGUUAAGUCUGGGCUGU` has a log2 enrichment of -0.524.
For `UCAAGUCCUGUGCUACACAUCGUAUGUACCGAAUCGGUUUGGUUUGGGGUUUGGGAAAGUAUUAUGUUACGCCGUUCGGAUCUGCACUUC`, the log2 enrichment was -2.49.
With `CAAGUCCUGUGCUACACAUCGUAUGUACCGAAUCAAACCCAAAUUUAAACCCAAAAAAGUAUUAUGUUACGCCGUUCGGAUCUGCACUUC` the log2 enrichment was 0.981.
The log2 enrichment of `CACAGACAACACGCACCCACACAGACACAGAGGGAAGGGGUUGGGAUGGGGACAGGGUGCACAGCAGGGCGGGUUAGGACCCCAGCCCCU` is reported as 0.901.

Set 3
Target: CEP164, C-terminal peptide (human)
Method: DHFR complementation, deep sequencing
Medium: yeast
Setting: single substitutions, model-inferred values
Baseline: wild type
Reading: higher = weaker binding
Starting sequence: PDZK1, PDZ domain 2 (human); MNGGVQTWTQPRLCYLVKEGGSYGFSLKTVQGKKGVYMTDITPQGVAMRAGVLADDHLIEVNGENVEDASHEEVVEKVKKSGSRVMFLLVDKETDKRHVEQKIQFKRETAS; partner HNRVKVYRF
`V17G` — result for “binding free energy change”: 0.775 kcal/mol.
For `F87R`, “binding free energy change” read 1.7 kcal/mol.
`L13H`: “binding free energy change” -0.0248 kcal/mol.
For `A50L`, “binding free energy change” read 0.711 kcal/mol.
Under “binding free energy change”, `K80H` is recorded as 0.638 kcal/mol.
`W8G`: “binding free energy change” -0.113 kcal/mol.
For `V66E`, “binding free energy change” read 0.987 kcal/mol.
`E73D` — result for “binding free energy change”: -0.0388 kcal/mol.
Under “binding free energy change”, `E73R` is recorded as 0.168 kcal/mol.
`Q6L`: “binding free energy change” 0.0703 kcal/mol.
Under “binding free energy change”, `Q6F` is recorded as 0.0397 kcal/mol.
`V75C` — result for “binding free energy change”: 0.484 kcal/mol.
Under “binding free energy change”, `Q31T` is recorded as 0.0611 kcal/mol.
Under “binding free energy change”, `E93F` is recorded as -0.22 kcal/mol.
`G45L`: “binding free energy change” 1.16 kcal/mol.
Under “binding free energy change”, `E108W` is recorded as -0.207 kcal/mol.
`H57G` — result for “binding free energy change”: 0.317 kcal/mol.
For `V36K`, “binding free energy change” read 1.32 kcal/mol.
For `G32L`, “binding free energy change” read 1.06 kcal/mol.
`Y23P` — result for “binding free energy change”: 1.39 kcal/mol.
`D91V` — result for “binding free energy change”: 0.585 kcal/mol.
`L16I`: “binding free energy change” 0.924 kcal/mol.
Under “binding free energy change”, `T9E` is recorded as 0.0618 kcal/mol.
`N62F`: “binding free energy change” 0.129 kcal/mol.
`H98Q` — result for “binding free energy change”: 0.055 kcal/mol.

Set 4
Target: RING finger protein unkempt homolog, zinc fingers 1-6, GST-SBP tag (UNK, Homo sapiens, UniProt Q9C0B0, residues 30-357)
Chain of UniProt Q9C0B0 (30-357, looked up): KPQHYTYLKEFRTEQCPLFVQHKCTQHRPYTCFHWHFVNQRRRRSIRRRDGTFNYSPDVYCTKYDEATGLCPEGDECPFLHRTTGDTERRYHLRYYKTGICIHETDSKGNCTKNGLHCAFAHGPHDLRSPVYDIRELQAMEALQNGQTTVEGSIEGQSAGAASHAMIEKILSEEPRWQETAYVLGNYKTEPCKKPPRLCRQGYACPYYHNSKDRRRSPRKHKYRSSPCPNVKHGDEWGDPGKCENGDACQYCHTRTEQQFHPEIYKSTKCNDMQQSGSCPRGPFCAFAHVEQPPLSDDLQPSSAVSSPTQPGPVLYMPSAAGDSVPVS
Method: RNA Bind-n-Seq
Form: RNA
Medium: in vitro
Concentration: not given
Setting: RNA with constant flanks, human and mouse sites, ends assumed
Baseline: input RNA pool
Reading: higher = stronger binding
All sequences stand within: GGGAGUUCUACAGUCCGACGAUC … CAACAGAGGAUUGAGCAUCA
`UUUGAGUCACUGCAAAAGAAAACCAAGAUUGCACUGGAACAUCCCAUGUUAACAGAUAUUCAUGACAAGCUGGUGUUGAAGGGUGAUUUUGAUGCUUGCGAAGAGUUGAUUGAAAAGGCU` has a bound/input enrichment of 0.238 ratio.
`GAGGCGGAGCAAAGCAACGGGAAGAUAAACGGGAGCACCUUCAAUAAAGAUGAAUCAAAGGAAGAAAAGAAAGAAGAGGAGGAGGAAUUAAAUUUUAAUGAAGACAUUCUGUGUCCUCAU` gave a bound/input enrichment of 0.415 ratio.
With `GAAAAGCCAUCUCCUAUUCAGGAGGAGAGCAUUCCCAUUGCUUUAUCUGGUAGGGAUAUCUUAGCUAGAGCAAAAAAUGGAACAGGCAAGAGCGGUGCCUACCUCAUUCCCUUACUUGAA` the bound/input enrichment was 0.222 ratio.
`CAUUUCACAACUAGAUUGUAUAAGGAUAUUAGCUGUGAUGAGACUCACUGCAUUAUUUUUUUUAGUGAAUUUUAUGAAAUCCCCGUUCCAUUCAACAGGCACAUGUUUAAAAGAGCUUUG` has a bound/input enrichment of 1.79 ratio.
`AAGCUUGAAGAAGAUGUAGAUCUUGGCUAUGUGGAAGAUGGGACACCUUGUGGUCCCCAAAUGAUGUGCUUAGAACACAGGUGUCUUCCUGUGGCUUCUUUCAACUUUAGUACUUGCUUG` gave a bound/input enrichment of 0.283 ratio.
The bound/input enrichment of `UAUUCUUCUGGGAGCAGAAAAGGGUUUUUGUCAGGCUUGCUAGAUAACAUCAAACAAGAAUUAGCCAAAAACAAAGAGAUGAAAGAAAGUAUAAAAAAGUUCCGAGAUGAGGCCAAGAAG` is reported as 0.815 ratio.
`AUUGUGGAGUAUCAGAACAAGGGCCGCGGGAACGAGUGCGUGCAGUACCAGCAUGUGUUACAUAGAAAUCUCAUUUAUUUGGCUACCAUUGCAGAUGCCAGUCCAACCAGCACUUCAAAA` gave a bound/input enrichment of 0.388 ratio.
With `UCAUCUACAUUUGCAAUUCCCCAAGAGCUAGAGAAAAGUGUACAGAUGUUUGAAUUGUUUUAUAGCCAGCAUUUCAGUGGACGGAAGCUGACAUGGUUGCAUUAUCUCUGUACAGGUGAA` the bound/input enrichment was 0.906 ratio.
`CAGAGGACUAUCCAACCUCCUAGGAAUAGGUGAAGGGAAGUGACGGACUGUAACUUGGAAGUCAGAAAUGGAAGAAUACAGUUGUCUAAGCACCAGGUCUUCACGACUCACAGCUGGAAG` has a bound/input enrichment of 0.376 ratio.
For `GACGACCUGUUCCGCUUCAACAACAUUAACUUGGAUCCACUUACAGAAACUUAUGGGAUUCCUUUUUACUUACAGUACCUUGCGCACUGGCCAGAGUAUUUCAUCGUCGCUGAAGCACCU`, the bound/input enrichment was 0.222 ratio.
`UUGGACCUGGAUGACCAUGGUGGCAGAACCUUCCUCAGGGUCCUGCUCCACUUGACAAUGCAUGACUACCCACCCCUGGUGUCUGGGGCCCUGCAGCUCCUCUUUCGGCACUUCAGCCAG` has a bound/input enrichment of 0.108 ratio.

Set 5
Target: ATF1, bZIP domain (human)
Method: DHFR protein complementation
Medium: yeast
Setting: single substitutions, most at no-binding floor
Baseline: wild-type JUN-FOS pair
Reading: higher = stronger binding
Starting sequence: JUN, bZIP domain (human); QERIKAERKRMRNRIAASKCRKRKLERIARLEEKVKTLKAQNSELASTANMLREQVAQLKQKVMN; partner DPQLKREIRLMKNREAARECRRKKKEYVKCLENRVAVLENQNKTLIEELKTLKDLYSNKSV
For `I28W`, the binding fitness was -1.41 natural log.
For `V56W`, the binding fitness was -1.51 natural log.
With `A57Y` the binding fitness was -1.43 natural log.
With `T48K` the binding fitness was -1.53 natural log.
`V35H` has a binding fitness of -1.5 natural log.
`K34L` has a binding fitness of -1.49 natural log.
`T37P` gave a binding fitness of -1.56 natural log.
For `T37S`, the binding fitness was -1.51 natural log.
`I28G` has a binding fitness of -1.47 natural log.
With `A40E` the binding fitness was -1.32 natural log.
`E32M` has a binding fitness of -1.55 natural log.
For `L38E`, the binding fitness was -1.54 natural log.
For `V35C`, the binding fitness was -1.61 natural log.
`I28L` has a binding fitness of -1.39 natural log.
For `Q55K`, the binding fitness was -1.57 natural log.
For `L38D`, the binding fitness was -1.54 natural log.
`N42D` has a binding fitness of -1.46 natural log.
`N42R` gave a binding fitness of -1.51 natural log.
`E33W` gave a binding fitness of -1.56 natural log.
For `R53P`, the binding fitness was -1.56 natural log.
`E44N` gave a binding fitness of -1.55 natural log.
With `A49S` the binding fitness was -1.49 natural log.
With `S47P` the binding fitness was -1.49 natural log.
`E33R` has a binding fitness of -1.55 natural log.

Some of these lines once more (set 1):
`L7V`: “normalised enrichment score” -0.433.
Under “normalised enrichment score”, `R8E` is recorded as 0.856.
`R5V` — result for “normalised enrichment score”: -0.311.
`R8L`: “normalised enrichment score” 0.0431.
`R5A L7A` — result for “normalised enrichment score”: 0.53.
